Measurements pooled from the literature.
Every numbered part comes from another study and shows a few of its results, in no order. Substitutions count along the parent as printed.

Series 1
Target: CCNB2, cyclin fold, Cln2 fusion (human)
Method: yeast growth competition, sequencing
Matrix: yeast
Setting: weak parent motif
Reference: not given
Direction: higher = stronger binding
Endpoint: normalised enrichment score
Parent: ORC1 docking peptide (human); PRARKRLELGNLG; partner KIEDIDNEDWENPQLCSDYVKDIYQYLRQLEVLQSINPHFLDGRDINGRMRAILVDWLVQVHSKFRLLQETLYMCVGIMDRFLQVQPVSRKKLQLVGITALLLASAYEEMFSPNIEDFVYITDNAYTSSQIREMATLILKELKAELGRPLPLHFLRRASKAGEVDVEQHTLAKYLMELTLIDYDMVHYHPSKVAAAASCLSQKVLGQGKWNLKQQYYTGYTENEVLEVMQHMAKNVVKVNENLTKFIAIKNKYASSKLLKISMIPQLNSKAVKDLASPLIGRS
PRARKALELGNLG [R6A]: -0.00778
PRARKRLELLNLG [G10L]: 1.18
PRARGRLELGNLG [K5G]: 0.4
PRCRKRLELGNLG [A3C]: 0.787
PRARERLELGNLG [K5E]: 0.157
PRARKRLELRNLG [G10R]: 0.56
PRARKRLELGNLE [G13E]: 0.253
PRARKRLELGHLG [N11H]: 0.313
PRARKRLELENLG [G10E]: 0.608

Series 2
Target: Max-binding protein MNT, bHLH-zipper, MAX partner unstated (MNT, Homo sapiens, UniProt Q99583, residues 220-300)
Method: protein-binding microarray
Form: double-stranded DNA, one strand shown
Matrix: in vitro
Tested at: not given
Setting: k-mer, scored over probes, only values ≥0.25
Direction: higher = stronger binding
Endpoint: E-score
Residues (chain): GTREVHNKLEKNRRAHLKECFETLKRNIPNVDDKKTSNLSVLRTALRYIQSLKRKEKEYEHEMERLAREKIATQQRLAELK
CGTGCAGC: 0.385
ACGAGATG: 0.274
AACATGTT: 0.272
CATGAGGG: 0.353
CTACACGC: 0.4
GTGGGGCA: 0.32
GACGTGGC: 0.263
CGTGGAAG: 0.358
TCATGCGA: 0.252
ACGTGGCA: 0.456
AGCCCCAC: 0.336

Series 3
Target: Centromere-binding protein 1, full length, His-tagged (CBF1, Saccharomyces cerevisiae, UniProt P17106, residues 1-351)
Sequence of UniProt P17106 (whole entry, looked up): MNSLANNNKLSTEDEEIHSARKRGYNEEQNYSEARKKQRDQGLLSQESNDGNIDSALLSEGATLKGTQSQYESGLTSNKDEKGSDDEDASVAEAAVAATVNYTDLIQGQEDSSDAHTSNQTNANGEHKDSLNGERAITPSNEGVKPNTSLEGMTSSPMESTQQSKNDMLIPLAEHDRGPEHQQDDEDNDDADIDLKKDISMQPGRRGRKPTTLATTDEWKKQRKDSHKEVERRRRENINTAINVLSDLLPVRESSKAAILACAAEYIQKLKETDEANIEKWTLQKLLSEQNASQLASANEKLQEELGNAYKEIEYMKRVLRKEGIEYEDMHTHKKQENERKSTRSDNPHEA
Method: competition protein-binding microarray
Form: double-stranded DNA, one strand shown
Matrix: in vitro
Tested at: 2 µM
Setting: whole 60-bp probe, lowest competitor level
Added: Pho4 competitor, 0.05 µM
Direction: higher = stronger binding
Endpoint: fluorescence intensity
Constant ends, left off below: … GTCTTGATTCGCTTGACGCTGCTG
GTTGAGGTGAACCAGCTCGTGGAGTAGACCGTTGAG: 55.2 a.u.
GTCTTGTCTCATTGTCACTTGACTTTCCCCACTTCA: 147 a.u.
AGATACAAAGTGTCCCACGGGCCAGTTTTGGCTTTA: 56.3 a.u.
CGCCCGTATTCGGGCAACGTGAGCCCAAATACGCCT: 176 a.u.
GGGTCCACTCTTATACGCGTGGGTATTTTTTCCTTT: 85.8 a.u.
GATTCATGGCTTCACCACGGGTCTTTGGCCAAGAGT: 77.3 a.u.
TAAAAGAACTAGAGCATCGTGATGGTATGATTCACT: 100 a.u.
TGCATTCTTCAATATCAGGTGAAATGTGTCTTGCCT: 133 a.u.
CTTTCCCGATCTTGGCCCGTGGGTGTAGCACATTTG: 67.7 a.u.
GCGGAAGACGCGCGAAACGTGAAACATTTTGCATGG: 112 a.u.
AAGAAGGGTATTTGTCACGTCAAGCCAGTGAGATGT: 81.5 a.u.
CAAGCGGAGGAGCAACACGTGGCCCAGCAAAAGGAG: 1370 a.u.
CGTCCTAGTGATTGCCACGTGTTTTCCATGAGGAAG: 1100 a.u.
AAACAAACTACATCGCACGTGACGGATAACTATACG: 5680 a.u.
AAATTACTAAGTTGCATAGTGGGTGACGCCGTATGA: 69.7 a.u.
CCAAATTGGCTGAAGAGCGTGGCCGGACGAACATTC: 60.1 a.u.
GAAATTTTAACGCAGAACGTGCCGAAGAAAAAAAAA: 217 a.u.

Further values, each from its own experiment
PhoQ, residues 284 288 289 292 302 303 SIHLQL  fold induction (PhoP, residues 12 14 15 18 19 LQHIR (Escherichia coli, UniProt P23836); Sort-seq, measured: YFP reporter; E. coli; PhoQ-PhoP variant library, added: 10 µM Mg2+; reference: high Mg2+ state, higher = stronger signaling): 15

Repeated from above (series 1):
PRARKRLELGHLG [N11H]: 0.313
PRCRKRLELGNLG [A3C]: 0.787
